Published values of several laboratories.
Lines come from different studies, so protocols differ. ± marks the error that the study gave.
UniProt O60656, sequence (whole entry, looked up): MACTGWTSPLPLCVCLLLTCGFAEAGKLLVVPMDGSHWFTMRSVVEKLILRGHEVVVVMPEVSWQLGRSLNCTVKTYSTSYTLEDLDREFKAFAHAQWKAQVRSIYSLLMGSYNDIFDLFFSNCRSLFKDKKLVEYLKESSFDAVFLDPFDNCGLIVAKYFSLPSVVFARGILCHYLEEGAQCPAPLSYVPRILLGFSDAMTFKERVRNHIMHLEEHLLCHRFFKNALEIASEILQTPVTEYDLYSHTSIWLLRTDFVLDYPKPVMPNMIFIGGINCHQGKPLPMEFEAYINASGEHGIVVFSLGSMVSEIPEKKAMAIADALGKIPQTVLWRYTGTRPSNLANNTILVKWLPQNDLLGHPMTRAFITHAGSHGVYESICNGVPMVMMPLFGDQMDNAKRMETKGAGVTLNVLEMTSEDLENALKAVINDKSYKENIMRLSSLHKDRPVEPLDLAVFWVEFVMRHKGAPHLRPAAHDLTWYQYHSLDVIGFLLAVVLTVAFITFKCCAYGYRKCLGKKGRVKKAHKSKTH

Molecule = CS/C(S)=N/CCCC[S+](C)[O-] (racemic); assay = RT-PCR, refers to: Chst1; test system = rat, colon; conditions = oral gavage, 200 mg/kg, 96 h, dosed for four days; how to read = reference: vehicle; quantity = mRNA fold change; result = 2.96
Molecule = CC(C)C[C@H](NC(=O)[C@H](CO)NC(=O)[C@H](CCCNC(=N)N)NC(=O)[C@H](CC(=O)O)NC(=O)[C@H](CCC(=O)O)NC(=O)[C@H](C)NC(=O)[C@@H]1CCCN1C(=O)[C@H](C)NC(=O)[C@H](CCC(=O)O)NC(=O)[C@@H]1CCCN1C(=O)[C@@H]1CCCN1)C(N)=O; assay = HPLC-EC; test system = F344 rat, normal, striatum; conditions = intranasal, 300 µg, 5 days/week for 3 weeks; quantity = DOPAC level; result = 2420 ± 259 ng/g
Molecule = Cn1c(-c2ccc(Br)s2)nc2cc(-c3nnc(-c4cc(-c5cc(F)cc(F)c5)nc5ccccc45)o3)ccc21; test system = human platelet-rich plasma; conditions = concentration not given; quantity = plasma recalcification time; result = 410 s
Molecule = CC(=O)Nc1ccc(C2=NNC(=O)C[C@H]2C)cc1; test system = guinea pig papillary muscle; conditions = up to 30 µM, without forskolin; how to read = reference: baseline; quantity = increase in contraction force; result = 341 ± 82 mg
Molecule = insulin lispro; assay = euglycemic clamp; test system = obese type 2 diabetes patients; conditions = subcutaneous, 10 units; quantity = total glucose infused; result = 92 mg/kg
Molecule = Cc1cccc2nc(-c3ccc(S(C)(=O)=O)cc3)c(Nc3ccc(F)cc3)n12; assay = formalin test; test system = male Wistar rat; conditions = intraperitoneal, 40 mg/kg; how to read = reference: control group; quantity = pain score AUC; result = decreased
Molecule = C[N+](C)(C)CCOC(N)=O; test system = rat aortic rings; conditions = 1000 nM, no TP508, with: norepinephrine 500 nM; quantity = vasorelaxation; result = 32%
Molecule = insulin aspart; assay = euglycaemic clamp; test system = human, type 1 diabetes; conditions = 0.3 U/kg; how to read = reference: compound over NN-Asp-US; quantity = GIRmax ratio; result = 1.03
Molecule = Nc1ncnc2c1ncn2[C@H]1[C@H](O)[C@H](O)[C@@]2(CP(=O)(O)O)C[C@H]12; assay = echocardiography; test system = CSQ heart failure mouse; conditions = subcutaneous minipump, 3.3 µM, 28 days; how to read = reference: vehicle; quantity = fractional shortening; result = no effect
Molecule = CCn1cnc(C[C@H](NC(=O)[C@@H]2CCC(=O)C2)C(=O)N2CCC[C@H]2C(N)=O)c1; test system = Swiss albino mice; conditions = intravenous, 10 µmol/kg, with: pentobarbital 50 mg/kg i.p. 10 min later; quantity = sleeping time; result = 27.8 ± 4.8 min
Molecule = CS(=O)(=O)c1ccc(-c2nc3ccccn3c2Nc2ccc(Cl)cc2)cc1; assay = formalin test; test system = male Wistar rat; conditions = intraperitoneal, 40 mg/kg; how to read = reference: control group; quantity = pain score AUC; result = decreased
Molecule = CC(=O)O[C@@]12CO[C@@H]1C[C@H](O)[C@@]1(C)C(=O)[C@H](O)C3=C(C)[C@@H](OC(=O)[C@H](O)[C@@H](NC(=O)OC(C)(C)C)c4ccccc4)C[C@@](O)([C@@H](OC(=O)c4ccccc4)[C@H]21)C3(C)C; test system = mouse, PC-3 xenograft; conditions = 5 mg/kg once weekly for 3 weeks, day 21 after inoculation; quantity = tumour volume; result = 170 ± 22.5 mm3
Molecule = Cc1ccc(NC(=O)c2ccc(CN3CCN(C)CC3)cc2)cc1Nc1nccc(-c2cncc(-c3oncc3C)c2)n1; test system = mild-to-moderate Parkinson's disease patients; conditions = oral, 50 mg once daily, pre-dose baseline, practically defined OFF state; how to read = direction not given; quantity = MDS-UPDRS part III score; result = 28.2 ± 9.6
Molecule = CC[C@H](C)[C@H](NC(=O)[C@H](CCC(=O)O)NC(=O)[C@H](CO)NC(=O)[C@@H](NC(=O)[C@@H](N)CO)C(C)C)C(=O)N[C@@H](CCC(N)=O)C(=O)N[C@@H](CC(C)C)C(=O)N[C@@H](CCSC)C(=O)N[C@@H](Cc1c[nH]cn1)C(=O)N[C@@H](CC(N)=O)C(=O)N[C@@H](CC(C)C)C(=O)NCC(=O)N[C@@H](CCCCN)C(=O)N[C@@H](Cc1c[nH]cn1)C(=O)N[C@@H](CC(C)C)C(=O)N[C@@H](CC(N)=O)C(=O)N[C@@H](CO)C(=O)N[C@@H](CCSC)C(=O)N[C@@H](CCC(=O)O)C(=O)N[C@@H](CCCNC(=N)N)C(=O)N[C@H](C(=O)N[C@@H](CCC(=O)O)C(=O)N[C@@H](Cc1c[nH]c2ccccc12)C(=O)N[C@@H](CC(C)C)C(=O)N[C@@H](CCCNC(=N)N)C(=O)N[C@@H](CCCCN)C(=O)N[C@@H](CCCCN)C(=O)N[C@@H](CC(C)C)C(=O)N[C@@H](CCC(N)=O)C(=O)N[C@@H](CC(=O)O)C(=O)N[C@H](C(=O)N[C@@H](Cc1c[nH]cn1)C(=O)N[C@@H](CC(N)=O)C(=O)N[C@@H](Cc1ccccc1)C(=O)O)C(C)C)C(C)C; assay = refers to: serum P1NP; test system = postmenopausal women, osteoporosis; conditions = subcutaneous, 56.5 µg once weekly, 24 h; how to read = reference: 0 h value; quantity = percent change; result = 4.9 to 8.6%
Molecule = CCCCCCCCCC(=O)N[C@@H](Cc1c[nH]c2ccccc12)C(=O)N[C@H](CC(N)=O)C(=O)N[C@@H](CC(=O)O)C(=O)N[C@@H]1C(=O)NCC(=O)N[C@@H](CCCN)C(=O)N[C@@H](CC(=O)O)C(=O)N[C@H](C)C(=O)N[C@@H](CC(=O)O)C(=O)NCC(=O)N[C@H](CO)C(=O)N[C@@H]([C@H](C)CC(=O)O)C(=O)N[C@@H](CC(=O)c2ccccc2N)C(=O)O[C@@H]1C; test system = Japanese patients with SSTI; conditions = intravenous, 4 mg/kg once daily, 7 to 14 days, test-of-cure, MITT-MRSA; quantity = microbiological success; result = 56.4%
Molecule = Clc1ccc2[nH]c(-c3cccc(OCc4ccccc4)c3)nc2c1; assay = ABTS scavenging, absorbance; quantity = IC50; result = 1850 nM
Molecule = insulin degludec; assay = euglycaemic clamp; test system = healthy human subjects; conditions = subcutaneous, 0.4 U/kg; how to read = lower limit; quantity = duration of glucose-lowering effect; result = > 24 h
Molecule = CARLSLSWRGLTLCPSK (68Ga-DOTA-labelled); target or system = mouse VAP-1; assay = ex vivo biodistribution; test system = peptide, wild-type mouse, B16 melanoma xenograft, small intestine; conditions = 60 min, with: 500-fold excess unlabelled DOTA-peptide; quantity = uptake; result = 0.1 ± 0.03 SUV
Molecule = CCOc1ccc(NCC(O)Cn2c3ccc(Br)cc3c3cc(Br)ccc32)cc1 (stereo not drawn); assay = neurogenesis; test system = C57BL/6J mouse, hippocampal dentate gyrus; conditions = intracerebroventricular, 10 µM at 12 µL/day, 7 days; quantity = BrdU-positive cells; result = 2.43e+07 ± 2.8e+06 cells/mm³
Molecule = CCOC(=O)N1CCC(NCCNC(=O)c2ccccc2)CC1; assay = whole-cell patch clamp; test system = rat hippocampal CA1 pyramidal cells; conditions = 30 µM, 2 min; how to read = reference: baseline; quantity = NMDA current amplitude; result = 138 ± 11.3%
Molecule = UGT1A9 (Homo sapiens, UniProt O60656); target or system = O=c1c(O)c(-c2ccccc2O)oc2ccccc12; assay = steady-state kinetics; conditions = pH 7.4, 37 °C; quantity = Vmax/Km; result = 78 µL/min/mg
Molecule = CC(C)c1nc(N(C)S(C)(=O)=O)nc(-c2ccc(F)cc2)c1/C=C/[C@@H](O)C[C@@H](O)CC(=O)O; test system = human; conditions = dose not given, 10 days; how to read = reference: baseline, decrease; quantity = LDL-C change; result = 43.7%
Molecule = CCC(C)(C)C(=O)O[C@H]1C[C@@H](C)C=C2C=C[C@H](C)[C@H](CC[C@@H]3C[C@@H](O)CC(=O)O3)[C@H]21; test system = dogs with hyperlipidaemia; conditions = 1 mg/kg/day, one month; quantity = plasma cholesterol; result = 269 ± 115 mg/dL
Molecule = Cc1c(C(=O)NN2CCCCC2)nn(-c2ccc(Cl)cc2Cl)c1-c1ccc(Cl)cc1; test system = rat, diet-induced obese, plasma; conditions = peripheral, 10 mg/kg per day, 6 days; quantity = corticosterone level; result = 73.3 ± 10.1 ng/mL
Molecule = YFCHQYL; test system = peptide, human polyclonal IgM RF ABR; conditions = concentration not given, 5 µg/mL mAb II-481 coated, with: RF at 50% max binding concentration; quantity = inhibition; result = 0%
Molecule = COc1cc(NC(=O)CCN2CCC(OC(=O)Nc3ccccc3-c3ccccc3)CC2)c(Cl)cc1CNC[C@H](O)c1ccc(O)c2[nH]c(=O)ccc12; assay = refers to: trough FEV1; test system = COPD patients; conditions = day 29; quantity = Emax; result = 0.293 L
Molecule = Cc1cc(C)c(/C=C2\C(=O)Nc3ccccc32)[nH]1; assay = MRI; test system = human; conditions = concentration not given, 11.4 months; quantity = tumour area; result = 1.22 cm²
Molecule = Cn1c(=O)n([C@@H]2O[C@H](COP(=O)(O)CP(=O)(O)O)[C@@H](O)[C@H]2O)cc/c1=N\OCc1ccc(Cl)cc1; assay = dot blot, refers to: soluble CD73; test system = culture medium; conditions = range over 1 to 100 µM, 15 min, rat cells; quantity = CD73 release into medium; result = increased
Molecule = RKVVTDFFKNIPQRI; assay = sandwich ELISA; test system = peptide, peptide-specific T cell line, mouse, culture supernatant; conditions = dose not given, 48 h; quantity = IFN-gamma secretion; result = 0.251 ng/mL
Molecule = LIYWAST; test system = peptide, human polyclonal IgM RF ABR; conditions = concentration not given, 5 µg/mL mAb II-481 coated, with: RF at 50% max binding concentration; quantity = inhibition; result = 4%
Molecule = bovine insulin; test system = Sprague-Dawley rat, fasted; conditions = subcutaneous, 1 IU/kg; quantity = glucose reduction; result = 45 ± 16.6%
Molecule = COCCSc1nnc(C23CC4CC(CC(C4)C2)C3)n1-c1ccccc1; assay = paw oedema; test system = rat; conditions = intraperitoneal, 40 mg/kg; quantity = inhibition in vivo; result = 2.46%
Molecule = Polymyxin B; test system = human whole blood; conditions = 250 ng/mL, 4 h, 37 °C, with: E. coli LPS 0.5 ng/mL; how to read = reference: LPS without compound; quantity = IL-10 release; result = 34.9 ± 16.7%

Excerpt of the above:
Molecule = insulin degludec; assay = euglycaemic clamp; test system = healthy human subjects; conditions = subcutaneous, 0.4 U/kg; how to read = lower limit; quantity = duration of glucose-lowering effect; result = > 24 h
Molecule = CARLSLSWRGLTLCPSK (68Ga-DOTA-labelled); target or system = mouse VAP-1; assay = ex vivo biodistribution; test system = peptide, wild-type mouse, B16 melanoma xenograft, small intestine; conditions = 60 min, with: 500-fold excess unlabelled DOTA-peptide; quantity = uptake; result = 0.1 ± 0.03 SUV
